{"data": "Measured values collected from several papers", "note": "Lines come from different studies, so protocols differ. “And” joins repeats or separate records; there may be more than shown. Numbers after ± are the reported error."}
{"SMILES": "O=C(O)CCC(NP(=O)(O)OCCC[C@@H](NC(=O)CCC(NC(=O)CCCCCNC(=O)c1ccc([18F])cc1)C(=O)O)C(=O)O)C(=O)O (stereo partly shown)", "tested on": "CWR22Rv1 tumour model", "test system": "host not given, heart", "setting": "intravenous, 1 h, tumour-bearing", "quantity": "tracer uptake", "result": "0.34 %ID/g"}
{"SMILES": "COc1cc(C(=O)NCCOCCOCCOCCNC(=O)c2ccc([18F])nc2)ccc1NC(=O)C1NC(CC(C)(C)C)C(C#N)(c2ccc(Cl)cc2F)C1c1cccc(Cl)c1F (stereo not shown)", "tested on": "HepG2 tumour model", "test system": "host not given, blood", "setting": "2 h, tumour-bearing", "quantity": "tracer uptake", "result": "0.83 %ID/g and < 1 %ID/g"}
{"SMILES": "CCCCn1cc(C(=O)O)c(=O)c2cc(F)c3c(nnn3-c3ccccc3Cl)c21", "tested on": "HT-29", "test": "cell growth or viability, SRB", "quantity": "IC50", "result": "222 µM"}
{"SMILES": "Cc1nc([C@H](NC(=O)c2ccc(-c3ccc(Cl)cc3)[nH]2)[C@@H]2CCCCN2)sc1CO", "tested on": "MT2", "test": "cell growth or viability, XTT", "quantity": "CC50", "result": "~25 µM"}
{"SMILES": "CN(C)CC1CCCCC1(O)c1cccc(O)c1 (stereo not shown)", "tested on": "P-glycoprotein", "test system": "Caco-2 TC7", "setting": "10 µM, 3 h, pH 6.8 apical, 7.4 basolateral, added: cyclosporin A 10 µM", "quantity": "efflux ratio", "result": 2.2}
{"SMILES": "Cl.Cl.Cl.Cl.Cl.Cl.Cl.Cl.Cl.Cl.Cl.Cl.NC[C@@H]1O[C@H](O[C@H]2[C@@H](O)[C@H](O[C@@H]3[C@@H](O)[C@H](N)C[C@H](N)[C@H]3O[C@H]3O[C@H](CN)[C@@H](O)[C@H](O)[C@H]3N)O[C@@H]2Cn2cc(-c3ccc(-c4cn(C[C@H]5O[C@@H](O[C@@H]6[C@@H](O)[C@H](N)C[C@H](N)[C@H]6O[C@H]6O[C@H](CN)[C@@H](O)[C@H](O)[C@H]6N)[C@H](O)[C@@H]5O[C@H]5O[C@@H](CN)[C@@H](O)[C@H](O)[C@H]5N)nn4)cc3)nn2)[C@H](N)[C@@H](O)[C@@H]1O", "tested on": "MT-2", "test": "cytotoxicity", "quantity": "CT5", "result": "17 µM"}
{"SMILES": "COc1ccc(CNc2nc(N3CCC[C@H]3CO)ncc2C(=O)NNC(=O)c2cnc(N3CCC[C@H]3CO)nc2NCc2ccc(OC)c(Cl)c2)cc1Cl", "tested on": "Salmonella typhimurium", "test system": "TA98", "setting": "62.5 µg/plate, 48 h, added: rat liver S9", "quantity": "revertant count", "result": "36 ± 2"}
{"SMILES": "CCCCCCCCCC(=O)NCC(=O)N[C@@H](CC(C)C)C(=O)N[C@@H](CC(C)C)C(=O)N[C@@H](CCCCN)C(=O)N[C@@H](CCCNC(=N)N)C(=O)N[C@H](C(=O)N[C@@H](CCCCN)C(=O)N[C@H](C(=O)N[C@@H](CC(C)C)C(=O)N[C@@H](CC(C)C)C(N)=O)[C@@H](C)O)[C@@H](C)CC", "tested on": "human erythrocytes", "setting": "1 h, 37 °C, 10% haemolysis", "quantity": "minimum haemolytic concentration", "result": "16.4 µM"}
{"SMILES": "O=C(O)CCC(NP(=O)(O)OCCC[C@@H](NC(=O)CCC(NC(=O)c1ccc([18F])cc1)C(=O)O)C(=O)O)C(=O)O (stereo partly shown)", "tested on": "CWR22Rv1 tumour model", "test system": "host not given, lung", "setting": "intravenous, 2 h, tumour-bearing", "quantity": "tracer uptake", "result": "0.43 %ID/g"}
{"SMILES": "CC[C@H](C)[C@H](NC(=O)[C@H](CCCNC(=N)N)NC(=O)[C@H](CCCCN)NC(=O)[C@H](CC(C)C)NC(=O)[C@H](CC(C)C)NC(=O)CN)C(=O)N[C@@H](CCCCN)C(=O)N[C@H](C(=O)N[C@@H](CC(C)C)C(=O)N[C@@H](CC(C)C)C(=O)NCCCC[C@H](NC(=O)[C@H](CCCCNC(=O)[C@H](CC(C)C)NC(=O)[C@H](CC(C)C)NC(=O)[C@@H](NC(=O)[C@H](CCCCN)NC(=O)[C@@H](NC(=O)[C@H](CCCNC(=N)N)NC(=O)[C@H](CCCCN)NC(=O)[C@H](CC(C)C)NC(=O)[C@H](CC(C)C)NC(=O)CN)[C@@H](C)CC)[C@@H](C)O)NC(=O)[C@H](CC(C)C)NC(=O)[C@H](CC(C)C)NC(=O)[C@@H](NC(=O)[C@H](CCCCN)NC(=O)[C@@H](NC(=O)[C@H](CCCNC(=N)N)NC(=O)[C@H](CCCCN)NC(=O)[C@H](CC(C)C)NC(=O)[C@H](CC(C)C)NC(=O)CN)[C@@H](C)CC)[C@@H](C)O)C(N)=O)[C@@H](C)O", "tested on": "human erythrocytes", "setting": "1 h, 37 °C, 10% haemolysis", "quantity": "minimum haemolytic concentration", "result": "2.53 µM"}
{"SMILES": "N=C(N)NCCCCCCN1CCC23c4c5ccc(O)c4OC2c2nc4ccccc4cc2CC3(O)C1C5 (stereo not shown)", "tested on": "delta opioid receptor", "test system": "CD-1 mice, male, brain", "setting": "subcutaneous, 30 mg/kg, 80 min", "quantity": "brain concentration over EC50", "result": "> 100 fold"}
{"SMILES": "C[C@]12CC[C@H](OCC[18F])C[C@H]1CC[C@@H]1[C@@H]2CC[C@]2(C)[C@@H](c3ccc(=O)oc3)CC[C@]12O", "tested on": "SMMC-7721 tumour model", "test system": "nude, tumour", "setting": "intravenous, 7.4 MBq, 2 h, tumour-bearing", "quantity": "tracer uptake", "result": "3.63 %ID/g"}
{"SMILES": "CCCCCCCCCC(=O)NCC(=O)N[C@@H](CC(C)C)C(=O)N[C@@H](CC(C)C)C(=O)N[C@@H](CCCCN)C(=O)N[C@@H](CCCNC(=N)N)C(=O)N[C@H](C(=O)N[C@@H](CCCCN)C(=O)N[C@H](C(=O)N[C@@H](CC(C)C)C(=O)N[C@@H](CC(C)C)C(=O)NCCCC[C@H](NC(=O)[C@H](CCCCNC(=O)[C@H](CC(C)C)NC(=O)[C@H](CC(C)C)NC(=O)[C@@H](NC(=O)[C@H](CCCCN)NC(=O)[C@@H](NC(=O)[C@H](CCCNC(=N)N)NC(=O)[C@H](CCCCN)NC(=O)[C@H](CC(C)C)NC(=O)[C@H](CC(C)C)NC(=O)CNC(=O)CCCCCCCCC)[C@@H](C)CC)[C@@H](C)O)NC(=O)[C@H](CC(C)C)NC(=O)[C@H](CC(C)C)NC(=O)[C@@H](NC(=O)[C@H](CCCCN)NC(=O)[C@@H](NC(=O)[C@H](CCCNC(=N)N)NC(=O)[C@H](CCCCN)NC(=O)[C@H](CC(C)C)NC(=O)[C@H](CC(C)C)NC(=O)CNC(=O)CCCCCCCCC)[C@@H](C)CC)[C@@H](C)O)C(N)=O)[C@@H](C)O)[C@@H](C)CC", "tested on": "human erythrocytes", "setting": "1 h, 37 °C, 10% haemolysis", "quantity": "minimum haemolytic concentration", "result": "147 µM"}
{"SMILES": "C[C@@](O)(C(F)F)[C@H](NC(=O)c1ccc(C#CC#CC2CC2)cc1)C(=O)NO", "test system": "dog, plasma", "setting": "intravenous, 30 mg/kg", "quantity": "AUC(0-inf)", "result": "19400 ng·h/mL"}
{"SMILES": "CN(C)CCNC(=O)/C=C/[C@H](Cc1ccccc1)Nc1ccnc2cc(Cl)ccc12", "tested on": "Plasmodium falciparum", "test system": "Vero, K1 chloroquine-resistant", "scale": "reference: Vero CC50 over parasite IC50", "quantity": "selectivity index", "result": 344}
{"SMILES": "CCCCCCCC(=O)NCC(=O)N[C@@H](CC(C)C)C(=O)N[C@@H](CC(C)C)C(=O)N[C@@H](CCCCN)C(=O)N[C@@H](CCCNC(=N)N)C(=O)N[C@H](C(=O)N[C@@H](CCCCN)C(=O)N[C@H](C(=O)N[C@@H](CC(C)C)C(=O)N[C@@H](CC(C)C)C(N)=O)[C@@H](C)O)[C@@H](C)CC", "tested on": "human erythrocytes", "setting": "1 h, 37 °C, 10% haemolysis", "quantity": "minimum haemolytic concentration", "result": "211 µM"}
{"SMILES": "COc1ccc(CNc2nc(N3CCC[C@H]3CO)ncc2C(=O)NN)cc1Cl", "tested on": "Salmonella typhimurium", "test system": "TA102", "setting": "125 µg/plate", "quantity": "revertant count", "result": "218 ± 14"}
{"SMILES": "CCC(=O)N(C)c1ccc(Cl)c(Cl)c1", "tested on": "Salmonella typhimurium", "test": "Ames test", "test system": "TA100", "setting": "1.00 mg/plate, without S9", "quantity": "revertant colonies", "result": "38 ± 20.2 revertants/plate"}
{"SMILES": "CN[C@](C)(C[18F])C(=O)O", "tested on": "DU-145 tumour model", "test system": "host not given, pancreas", "setting": "30 min, tumour-bearing", "quantity": "tracer uptake", "result": "45 %ID/g"}
{"note": "Excerpt of the above:"}
{"SMILES": "CN(C)CCNC(=O)/C=C/[C@H](Cc1ccccc1)Nc1ccnc2cc(Cl)ccc12", "tested on": "Plasmodium falciparum", "test system": "Vero, K1 chloroquine-resistant", "scale": "reference: Vero CC50 over parasite IC50", "quantity": "selectivity index", "result": 344}
